Experimental data collected from several papers.
A part holds a random share of what one study measured.
Sequence of UniProt P08069 (whole entry, looked up): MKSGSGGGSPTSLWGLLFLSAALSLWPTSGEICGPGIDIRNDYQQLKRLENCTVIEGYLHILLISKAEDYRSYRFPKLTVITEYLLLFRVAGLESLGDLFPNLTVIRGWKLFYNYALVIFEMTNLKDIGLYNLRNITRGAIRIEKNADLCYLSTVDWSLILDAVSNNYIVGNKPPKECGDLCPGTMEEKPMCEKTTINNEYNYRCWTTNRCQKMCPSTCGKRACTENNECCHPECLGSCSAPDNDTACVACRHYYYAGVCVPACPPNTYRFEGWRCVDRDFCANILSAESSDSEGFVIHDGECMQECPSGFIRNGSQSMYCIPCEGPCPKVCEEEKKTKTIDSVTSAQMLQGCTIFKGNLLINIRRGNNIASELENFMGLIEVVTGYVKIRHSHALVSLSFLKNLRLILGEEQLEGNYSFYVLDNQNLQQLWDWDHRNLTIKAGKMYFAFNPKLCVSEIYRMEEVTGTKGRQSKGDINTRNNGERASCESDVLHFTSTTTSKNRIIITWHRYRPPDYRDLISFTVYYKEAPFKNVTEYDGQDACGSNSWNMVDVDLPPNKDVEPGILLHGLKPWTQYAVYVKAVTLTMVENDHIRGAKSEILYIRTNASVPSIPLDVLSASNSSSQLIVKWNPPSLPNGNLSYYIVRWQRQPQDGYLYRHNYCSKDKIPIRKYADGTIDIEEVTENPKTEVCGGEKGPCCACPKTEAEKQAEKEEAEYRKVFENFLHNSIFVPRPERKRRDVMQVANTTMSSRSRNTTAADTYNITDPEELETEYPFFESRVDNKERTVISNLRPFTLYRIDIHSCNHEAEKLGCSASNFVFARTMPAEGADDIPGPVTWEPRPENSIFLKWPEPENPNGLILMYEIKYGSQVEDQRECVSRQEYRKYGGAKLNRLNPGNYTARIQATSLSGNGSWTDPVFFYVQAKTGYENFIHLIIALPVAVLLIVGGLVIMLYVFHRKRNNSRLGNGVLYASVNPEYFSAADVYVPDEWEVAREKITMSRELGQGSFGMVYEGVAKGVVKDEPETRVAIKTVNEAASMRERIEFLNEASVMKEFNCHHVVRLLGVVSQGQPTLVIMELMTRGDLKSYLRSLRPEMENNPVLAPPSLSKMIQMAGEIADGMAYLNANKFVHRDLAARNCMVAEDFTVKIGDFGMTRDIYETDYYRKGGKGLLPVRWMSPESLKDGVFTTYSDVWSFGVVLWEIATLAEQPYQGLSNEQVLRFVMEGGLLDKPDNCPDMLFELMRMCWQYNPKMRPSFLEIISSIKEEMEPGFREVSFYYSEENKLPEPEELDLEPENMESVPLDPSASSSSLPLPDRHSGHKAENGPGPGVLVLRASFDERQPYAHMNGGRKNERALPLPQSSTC
Sequence of UniProt Q13153 (whole entry, looked up): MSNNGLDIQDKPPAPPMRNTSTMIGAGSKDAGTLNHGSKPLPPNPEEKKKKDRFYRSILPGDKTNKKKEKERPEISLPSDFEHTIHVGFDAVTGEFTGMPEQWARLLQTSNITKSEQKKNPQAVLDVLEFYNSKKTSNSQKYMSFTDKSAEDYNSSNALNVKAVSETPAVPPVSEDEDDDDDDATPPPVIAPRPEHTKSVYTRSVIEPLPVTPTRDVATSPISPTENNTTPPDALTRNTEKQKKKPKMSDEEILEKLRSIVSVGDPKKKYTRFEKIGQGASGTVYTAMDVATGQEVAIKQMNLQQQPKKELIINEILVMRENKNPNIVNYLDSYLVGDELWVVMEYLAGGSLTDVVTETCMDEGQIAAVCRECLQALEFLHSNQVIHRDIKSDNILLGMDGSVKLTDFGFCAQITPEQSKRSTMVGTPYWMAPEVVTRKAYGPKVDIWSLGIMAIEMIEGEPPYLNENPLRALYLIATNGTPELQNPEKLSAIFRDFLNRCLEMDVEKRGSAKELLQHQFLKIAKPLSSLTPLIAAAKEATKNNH
Sequence of UniProt Q13523 (whole entry, looked up): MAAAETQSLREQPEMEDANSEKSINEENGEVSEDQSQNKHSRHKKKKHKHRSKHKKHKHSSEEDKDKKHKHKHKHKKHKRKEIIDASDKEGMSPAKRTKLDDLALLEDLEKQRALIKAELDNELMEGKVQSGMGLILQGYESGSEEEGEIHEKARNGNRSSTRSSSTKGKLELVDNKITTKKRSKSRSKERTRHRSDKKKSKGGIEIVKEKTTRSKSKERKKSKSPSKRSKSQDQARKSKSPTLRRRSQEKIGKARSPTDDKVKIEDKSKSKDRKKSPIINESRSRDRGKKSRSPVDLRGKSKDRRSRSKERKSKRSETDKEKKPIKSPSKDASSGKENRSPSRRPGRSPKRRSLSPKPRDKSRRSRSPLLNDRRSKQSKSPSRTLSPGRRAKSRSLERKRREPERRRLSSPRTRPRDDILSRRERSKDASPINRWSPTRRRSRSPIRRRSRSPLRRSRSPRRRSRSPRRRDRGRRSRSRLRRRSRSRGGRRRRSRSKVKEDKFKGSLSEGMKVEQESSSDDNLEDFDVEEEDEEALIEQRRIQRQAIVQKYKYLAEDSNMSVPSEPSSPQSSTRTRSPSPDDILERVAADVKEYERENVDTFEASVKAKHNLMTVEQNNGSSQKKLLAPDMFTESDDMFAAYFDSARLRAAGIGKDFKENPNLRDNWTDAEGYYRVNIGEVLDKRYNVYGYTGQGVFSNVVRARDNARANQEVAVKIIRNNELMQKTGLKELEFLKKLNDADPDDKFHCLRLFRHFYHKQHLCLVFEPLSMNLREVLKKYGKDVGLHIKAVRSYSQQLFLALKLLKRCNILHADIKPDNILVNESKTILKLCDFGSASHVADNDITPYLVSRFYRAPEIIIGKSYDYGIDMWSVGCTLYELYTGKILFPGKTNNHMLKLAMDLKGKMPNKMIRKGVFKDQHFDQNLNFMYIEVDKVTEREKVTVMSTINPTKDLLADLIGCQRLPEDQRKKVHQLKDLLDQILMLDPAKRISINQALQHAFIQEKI
Sequence of UniProt Q00535 (whole entry, looked up): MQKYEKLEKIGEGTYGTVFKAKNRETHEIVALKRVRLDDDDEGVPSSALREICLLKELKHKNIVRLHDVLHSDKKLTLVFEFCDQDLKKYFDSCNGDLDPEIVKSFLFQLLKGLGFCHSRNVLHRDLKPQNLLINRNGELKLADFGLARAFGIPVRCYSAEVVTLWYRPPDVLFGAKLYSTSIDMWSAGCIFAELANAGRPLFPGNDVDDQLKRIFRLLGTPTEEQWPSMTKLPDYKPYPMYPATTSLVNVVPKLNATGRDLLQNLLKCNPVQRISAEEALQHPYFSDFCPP
Sequence of UniProt Q12866 (whole entry, looked up): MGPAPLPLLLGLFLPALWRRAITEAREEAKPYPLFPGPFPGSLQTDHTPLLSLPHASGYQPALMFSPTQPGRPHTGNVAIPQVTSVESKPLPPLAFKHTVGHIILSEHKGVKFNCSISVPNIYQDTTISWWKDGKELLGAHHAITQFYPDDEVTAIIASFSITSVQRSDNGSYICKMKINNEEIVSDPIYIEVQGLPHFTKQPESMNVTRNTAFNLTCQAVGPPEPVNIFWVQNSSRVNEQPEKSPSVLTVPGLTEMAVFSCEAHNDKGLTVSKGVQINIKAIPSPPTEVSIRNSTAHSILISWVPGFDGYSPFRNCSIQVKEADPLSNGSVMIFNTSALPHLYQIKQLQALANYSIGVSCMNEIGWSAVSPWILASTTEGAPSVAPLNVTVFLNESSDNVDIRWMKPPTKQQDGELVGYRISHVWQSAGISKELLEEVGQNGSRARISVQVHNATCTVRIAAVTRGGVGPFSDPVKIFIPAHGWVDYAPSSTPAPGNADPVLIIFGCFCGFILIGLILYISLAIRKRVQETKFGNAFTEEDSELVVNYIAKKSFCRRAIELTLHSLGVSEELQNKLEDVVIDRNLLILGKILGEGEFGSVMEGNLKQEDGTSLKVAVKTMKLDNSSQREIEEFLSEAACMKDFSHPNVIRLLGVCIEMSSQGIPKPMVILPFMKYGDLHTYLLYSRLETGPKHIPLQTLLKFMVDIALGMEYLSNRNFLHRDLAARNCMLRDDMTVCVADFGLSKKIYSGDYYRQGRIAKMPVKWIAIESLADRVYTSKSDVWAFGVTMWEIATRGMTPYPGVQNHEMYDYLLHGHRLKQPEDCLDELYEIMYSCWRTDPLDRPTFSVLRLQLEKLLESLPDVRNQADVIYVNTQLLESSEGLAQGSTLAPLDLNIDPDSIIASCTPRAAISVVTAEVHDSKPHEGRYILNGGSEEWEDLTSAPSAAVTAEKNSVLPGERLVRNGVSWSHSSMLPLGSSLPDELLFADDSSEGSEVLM
Sequence of UniProt P21127 (whole entry, looked up): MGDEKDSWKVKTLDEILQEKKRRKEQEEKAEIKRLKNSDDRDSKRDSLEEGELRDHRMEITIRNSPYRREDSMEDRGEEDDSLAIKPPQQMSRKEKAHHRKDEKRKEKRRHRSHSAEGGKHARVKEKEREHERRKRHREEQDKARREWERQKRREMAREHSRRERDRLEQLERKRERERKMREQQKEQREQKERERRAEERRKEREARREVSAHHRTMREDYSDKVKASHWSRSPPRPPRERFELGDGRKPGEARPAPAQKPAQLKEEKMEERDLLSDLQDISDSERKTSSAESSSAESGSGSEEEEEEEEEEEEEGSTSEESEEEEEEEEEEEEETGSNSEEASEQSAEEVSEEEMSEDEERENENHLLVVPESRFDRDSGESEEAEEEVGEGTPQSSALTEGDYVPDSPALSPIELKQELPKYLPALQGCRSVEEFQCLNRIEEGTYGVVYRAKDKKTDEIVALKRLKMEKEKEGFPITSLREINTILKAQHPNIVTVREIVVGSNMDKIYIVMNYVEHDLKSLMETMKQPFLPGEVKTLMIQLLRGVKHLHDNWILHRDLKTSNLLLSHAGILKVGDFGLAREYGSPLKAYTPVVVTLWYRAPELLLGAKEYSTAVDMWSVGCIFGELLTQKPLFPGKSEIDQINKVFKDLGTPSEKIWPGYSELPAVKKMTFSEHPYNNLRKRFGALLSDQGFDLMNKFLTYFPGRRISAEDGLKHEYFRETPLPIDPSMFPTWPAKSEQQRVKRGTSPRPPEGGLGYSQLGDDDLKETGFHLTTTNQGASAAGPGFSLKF

Set 1
SMILES: CC(C)n1cnc(-c2ccc(F)cc2)c1-c1ncc(C(=O)Nc2ccc(N3CCN(C)CC3)cc2)[nH]1
Technique: phase 2a clinical trial
Host: patients with idiopathic pulmonary fibrosis
| test | conditions | patients with treatment-emergent adverse events |
| --- | --- | --- |
| item: lumbar vertebral fracture | 60 mg once daily, Grade 4, maximum intensity | 0% |
| item: hepatic function abnormal | 30 mg once daily, Grade 4 | 0% |
| item: benign prostatic hyperplasia | 60 mg once daily, Grade 1, maximum intensity | 0% |
| item: benign prostatic hyperplasia | 60 mg once daily, Grade 2, maximum intensity | 0% |
| item: gastro-oesophageal reflux disease | 30 mg once daily, Grade 5 | 0% |
| item: first degree atrioventricular block | dose not given, Grade 3, all drug arms | 0% |
| item: carbon dioxide decreased | 60 mg once daily, Grade 2 | 0% |
| item: left bundle branch block | 30 mg once daily, Grade 2 | 0% |

Set 2
SMILES: O=C(Nc1cccnn1)N1CCC(=Cc2cccc(Oc3ccc(C(F)(F)F)cn3)c2)CC1
Effect on: cell-free assay
Technique: competition with immobilised ligand
Concentration: 1 µM
| target | remaining binding [%] |
| --- | --- |
| CDK5 (Homo sapiens, UniProt Q00535) | 92 |
| DAPK2 (Homo sapiens, UniProt Q9UIK4) | 69 |
| Tyrosine-protein kinase ABL1, non-phosphorylated (ABL1, Homo sapiens, UniProt P00519, T315I) | 100 |
| PIM1 (Homo sapiens, UniProt P11309) | 85 |
| IGF1R (Homo sapiens, UniProt P08069) | 87 |
| CDK11B (Homo sapiens, UniProt P21127) | 100 |
| ALK (Homo sapiens, UniProt Q9UM73) | 100 |
| BRAF (Homo sapiens, UniProt P15056) | 93 |
| MERTK (Homo sapiens, UniProt Q12866) | 81 |
| STK17B (Homo sapiens, UniProt O94768) | 100 |
| PRPF4B (Homo sapiens, UniProt Q13523) | 100 |
| PTK2 (Homo sapiens, UniProt Q05397) | 100 |
| CSNK1G2 (Homo sapiens, UniProt P78368) | 92 |
| MAPK4 (Homo sapiens, UniProt P31152) | 95 |
| CDK7 (Homo sapiens, UniProt P50613) | 100 |
| CHEK1 (Homo sapiens, UniProt O14757) | 78 |
| PIK3CA (Homo sapiens, UniProt P42336, E545A) | 100 |

Set 3
Cell line: mouse MPNST tumor cells
Technique: high-content nuclear imaging
Item: cell number
Concentration: 10 µM
Time: 12 h
Setting: mean of 2 replicates
Reference: plate mean
Direction: higher = more cells
| SMILES | nuclei count [z-score] |
| --- | --- |
| CN(C)CCN1C(=O)c2ccccc2N(C)c2ccccc21 | 1.2 |
| CC1CCc2c(cc(Br)c(F)c2Br)N1C=O (centres unmarked) | 1.42 |
| CCCCN1C[C@H](O)[C@@H](O)[C@H](O)[C@H]1CO | -0.214 |
| CC(C(=O)O)c1ccc(C(=O)c2ccccc2)s1 (centres unmarked) | 0.849 |
| CCCCS(=O)(=O)N[C@@H](Cc1ccc(OCCCCC2CCNCC2)cc1)C(=O)O | 1.95 |
| CCC1=C(C)CN(C(=O)NCCc2ccc(S(=O)(=O)NC(=O)N[C@H]3CC[C@H](C)CC3)cc2)C1=O | 2.24 |

Set 4
Structure (SMILES): Cc1ccc(S(=O)(=O)/C=C/C#N)cc1
Effect on: enzyme activity
Mode: inhibitor
Concentration: 0.5 µM
Reference: control
| target | remaining activity [%] |
| --- | --- |
| RPS6KA3 (Homo sapiens, UniProt P51812) | 95.9 |
| CLK2 (Homo sapiens, UniProt P49760) | 103 |
| IGF1R (Homo sapiens, UniProt P08069) | 93.5 |
| JAK1 (Homo sapiens, UniProt P23458) | 98.2 |
| PAK1 (Homo sapiens, UniProt Q13153) | 89.5 |
| CAMKK1 (Homo sapiens, UniProt Q8N5S9) | 114 |
| EPHA2 (Homo sapiens, UniProt P29317) | 105 |

Repeated from above (set 2):
| target | remaining binding [%] |
| --- | --- |
| BRAF (Homo sapiens, UniProt P15056) | 93 |
| MERTK (Homo sapiens, UniProt Q12866) | 81 |
| STK17B (Homo sapiens, UniProt O94768) | 100 |
